Published values from different studies.
Each numbered part is a random draw from the data of one study; scales do not carry over between parts.

Study 1
Target: Sal-like protein 4, full length isoform B (SALL4, Homo sapiens, UniProt Q9UJQ4-2, residues 1-616)
Method: universal PBM
Molecule type: double-stranded DNA, one strand shown
Medium: in vitro
Tested at: not given
Notes: 8-mer, flanks averaged, mean of replicates
Direction: higher = stronger binding
Target sequence (chain): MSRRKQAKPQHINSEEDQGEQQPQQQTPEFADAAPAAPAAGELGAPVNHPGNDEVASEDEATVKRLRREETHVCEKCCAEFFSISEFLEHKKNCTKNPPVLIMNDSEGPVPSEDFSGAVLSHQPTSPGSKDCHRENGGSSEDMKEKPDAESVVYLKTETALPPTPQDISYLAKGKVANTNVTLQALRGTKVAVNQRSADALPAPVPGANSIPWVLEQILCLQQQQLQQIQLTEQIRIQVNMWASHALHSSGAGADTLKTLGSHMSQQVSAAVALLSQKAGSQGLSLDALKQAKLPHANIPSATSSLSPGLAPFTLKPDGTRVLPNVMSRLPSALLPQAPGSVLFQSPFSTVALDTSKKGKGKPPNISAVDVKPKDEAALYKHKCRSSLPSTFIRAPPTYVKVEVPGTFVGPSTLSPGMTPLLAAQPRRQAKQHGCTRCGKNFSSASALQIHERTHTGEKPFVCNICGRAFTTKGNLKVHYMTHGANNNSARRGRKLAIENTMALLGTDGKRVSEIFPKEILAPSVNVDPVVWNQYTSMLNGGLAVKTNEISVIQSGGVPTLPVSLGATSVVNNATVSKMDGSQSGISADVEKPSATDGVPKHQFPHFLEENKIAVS
Sequence | E-score
CATGATAC | 0.172
CTAAGGTA | -0.00472
CCCTCTTC | -0.148
GATCGACC | -0.354
TTGATAAA | 0.293
CCTCGTAG | -0.0423
CGTAGGCA | -0.121
ATCATAGA | 0.255
AGCAAGCA | -0.143
ATCACTAG | 0.0217
TCATCCAA | 0.139
TAGGCTCA | -0.0534
GGCAATGA | -0.0725
CCCGACGC | -0.369
GGTCACCA | -0.358
ACTGTGAC | 0.0644
ATTACCTG | 0.208
AATGATGG | 0.15
TTGCAAAA | 0.231

Study 2
Target: RING finger protein unkempt homolog, zinc fingers 1-6, GST-SBP tag (UNK, Homo sapiens, UniProt Q9C0B0, residues 30-357)
Sequence of UniProt Q9C0B0 (30-357, looked up): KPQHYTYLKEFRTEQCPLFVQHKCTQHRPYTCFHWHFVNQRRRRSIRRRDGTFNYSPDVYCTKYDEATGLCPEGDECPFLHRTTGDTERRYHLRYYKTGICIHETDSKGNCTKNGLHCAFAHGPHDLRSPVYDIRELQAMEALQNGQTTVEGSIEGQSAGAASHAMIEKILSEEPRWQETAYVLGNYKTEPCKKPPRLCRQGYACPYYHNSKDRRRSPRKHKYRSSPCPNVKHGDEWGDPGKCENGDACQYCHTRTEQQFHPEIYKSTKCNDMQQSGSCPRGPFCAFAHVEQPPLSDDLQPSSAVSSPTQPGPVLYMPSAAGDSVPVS
Method: RNA Bind-n-Seq
Molecule type: RNA
Medium: in vitro
Tested at: not given
Notes: RNA with constant flanks, human-mouse chimeric sites, ends assumed
Reference: input RNA pool
Direction: higher = stronger binding
Sequence | bound/input enrichment [ratio]
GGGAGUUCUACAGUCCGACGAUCUCUUUAAAAAAAAAAUUACCUUUUCUGACAGUGCUUUAUGGAGUAAAGAUCCACGUUCAAGCUCAAAGGCCAAAACUUUUGCACGGAGCUCAAACAUCUGAUGAAGAAAGAUUUCUGAGACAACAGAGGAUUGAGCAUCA | 0.228
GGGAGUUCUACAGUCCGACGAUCAGAAUCUUGGGACUGUUUUACUUAAUUGGUCAUUGAUAGCUUAACAAACAUGGAGAUAAGAUUAGAAAUCUUGACAUCAACAAGUAUUAAGCAGAAAAAACCAUGGCCCAGAGUAUCCUGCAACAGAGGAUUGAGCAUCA | 0.12
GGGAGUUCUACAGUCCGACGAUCCUCAUGGCUGCAGAAACAGGAAGUGGAAAAACUGGUGCAUUUAGUAUUCCCGUUAUCCAGAUAGUGUAUGAAACUCUGAAAGACCAACAGGAAGGCAAGAAAGGGAAAACAACAAUUAAACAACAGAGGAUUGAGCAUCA | 1.37
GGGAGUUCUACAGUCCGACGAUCUACUACUAUGAUGGUGAUAUUGGCAAUUAUUAUUAUGGCCAGGGUCAUCCCAUGAAGCCUCAUAGAAUCCGCAUGACUCAUAACUUGCUGCUAAAUUAUGGUUUAUACAGAAAAAUGGAACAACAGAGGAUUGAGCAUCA | 0.113
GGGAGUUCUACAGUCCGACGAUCUCUGAGGUACCACUGAAAGAGACAUUAAAGAAUCAUUUGAGGGCUCUGUUCGUGCAAGAAUAGUCACUGAUCGGGAAACUGGUUCUUCCAAAGGGUUUGGUUUUGUAGACUUUAAUAGUGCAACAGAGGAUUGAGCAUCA | 0.813
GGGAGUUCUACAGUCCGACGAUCCAGCCUCAGAGCCCAGACUUCCUGGAUAUUACCAACCCUAAAGCGGUAUUAGAAAAUGCAUUGAGAAACUUUGCCUGUCUGACGACUGGAGAUGUGAUUGCUAUCAACUACAAUGAGAAGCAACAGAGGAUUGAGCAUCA | 0.482
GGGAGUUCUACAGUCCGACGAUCAUGGAACAUUUUGAUGCGUCACUCAGUACCUAUUUCAAGGCCUUCCUGGGCCCCCGAGAUACAAGAGUCAAAGGAUGGUUCCUCCUGGACAAUUAUAUCCCUACGUUUGUCUGUUCUGUUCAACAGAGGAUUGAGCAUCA | 0.137
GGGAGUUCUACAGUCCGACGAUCAGUUCCAAACCACCAUCAGAAAUGAAGAUGAGAUUACCCAAGACGAGCAAAACAGCUGCGCUACAGAAAAGUAAACUUAACCUUGCAGAGUUCCUUAAUGAAGAUACAAGUUAAGAGAGCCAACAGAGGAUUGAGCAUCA | 0.168

Study 3
Target: RNA binding protein fox-1 homolog 2, RRM domain, GST-SBP tag (RBFOX2, Homo sapiens, UniProt O43251-10, residues 100-194)
Method: RNA Bind-n-Seq
Molecule type: RNA
Medium: in vitro
Tested at: 365 nM
Notes: natural RNA segment, single round, ends assumed
Reference: no-protein control
Direction: higher = stronger binding
Residues (chain): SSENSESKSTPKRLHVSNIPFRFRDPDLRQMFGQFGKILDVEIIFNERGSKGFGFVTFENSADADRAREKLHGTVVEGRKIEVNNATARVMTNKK
Sequence | RBNS enrichment (R)
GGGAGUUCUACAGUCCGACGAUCUGGGAAAACACAAAAAAUUACACAACCCAGCAACAACAAAAGAACUAGUCCUCUUAGAAUUUCUUGCGCUUUGAUUUUUUUAGGGCUUGUGCCCUGUUUCACUUAUAGGGUGGAAUUCUCGGGUGCCAA | 0.941
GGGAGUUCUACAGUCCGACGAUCAAACACUUCUAGAGCUUUGUGGUCCAAACUCUGGCUCUCCCGUCUGCAAAACAGGAGCCAGCCUGGGCUCUGUGCCUACCUCAAGGGGAGCUGGGGGUUGGGGGGACUGAUGGAAUUCUCGGGUGCCAA | 0.323
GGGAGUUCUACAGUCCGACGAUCUCCUGUCCUUCCUUGAAAUUGCUGAUUGUUCUGCUCCCUCUACAGAUAUUUAUAUCAAUUCCUACAGCUUUCCCCUGCCAUCCCUGAACUCUUUCUAGCCCUUUUAGAUUUGGAAUUCUCGGGUGCCAA | 1.05
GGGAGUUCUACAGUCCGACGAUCAGAGCAAUAAGCAUCAUGCAUCUCCCCGAUUCCCACUAGCACCCCUCUGCCUCUGGCUCAGGUUGCUCAAAGCACAGAUCCCCUCUUAUCCCUGUCCCCAGGACCGAAACUGGAAUUCUCGGGUGCCAA | 1.53
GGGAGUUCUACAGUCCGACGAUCAGACAUCGAAAUAAUCACUUGUCAUGCAUUGACUGUAAAUGCAGAUAGAGAAAUAUGUCUUUGAAGCUCCACUUACACAAAAAUAAAACUUGUAUAUCAUGCUCCCUCAAUGGAAUUCUCGGGUGCCAA | 0.635
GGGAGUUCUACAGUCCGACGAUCAACUCCCAGGAAUACUGUACCUGUGUUUGGAGGAGCUUUCUCAGAGAAAUAGCAAGCAUGUCCUGUUGCUUAACGUGUCCUUGUGAAUUGCUUGGUUUUGAUUAAAGUCUUGGAAUUCUCGGGUGCCAA | 13.7
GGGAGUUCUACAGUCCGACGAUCACAUACAUAUGCCGUAAGGCGCAAUCACUGUUUCAGACUUAAAAUUAUUAGUGUGUUUGUUUGGUCCAGAAACUGAGACAAUCACAUGACAGUCACCACGAGGAGAGAAAUGGAAUUCUCGGGUGCCAA | 0.509
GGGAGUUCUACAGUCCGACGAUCCACCAUCUAGCGGCCGCUCGAGGGAAGCACCCGCCGGUUGGCCGAAGUCCACGAAGCCGCCCUCUGCUAGGGAAAACCCCUGGUUCUCCAUGCCACACCUCUCUCCAGGUUGGAAUUCUCGGGUGCCAA | 0.528

Study 4
Target: Histone acetyltransferase KAT6A, both winged helices, GST fusion (KAT6A, Homo sapiens, UniProt Q92794, residues 1-181)
Method: protein binding microarray
Molecule type: double-stranded DNA, one strand shown
Medium: in vitro
Tested at: not given
Notes: 8-mer, flanks averaged, mean of 2 arrays, mostly near background
Reference: not given
Direction: higher = stronger binding
Target sequence (chain): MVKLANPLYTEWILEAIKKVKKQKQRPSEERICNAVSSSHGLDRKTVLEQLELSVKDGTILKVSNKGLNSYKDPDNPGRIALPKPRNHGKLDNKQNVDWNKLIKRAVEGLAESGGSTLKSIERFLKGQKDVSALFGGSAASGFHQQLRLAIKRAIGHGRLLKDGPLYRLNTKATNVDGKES
Sequence | E-score
CCGTTAGC | 0.181
CCCCGTGA | 0.0414
CGCAGGCA | 0.143
CAACTCCC | -0.177
AAGCTTAG | -0.168
CCCATACG | 0.0205
CATCTGAA | -0.0177
CGCATACC | 0.266
CAGCGCAG | 0.275
AAGGCCCT | -0.0501
TGGTTAAA | 0.013
AGCGAGTC | 0.0356
ACTTCGCG | 0.204
GATTCAAC | 0.0505
CTTGCCGA | 0.0657
CTCCAGTA | -0.0893
GACACTAC | -0.0512
GTAGGCAC | -0.0445
GTTTCAAA | 0.00985

Repeated from above (study 1):
Sequence | E-score
GATCGACC | -0.354
TTGATAAA | 0.293
CCTCGTAG | -0.0423
CGTAGGCA | -0.121
ATCATAGA | 0.255
AGCAAGCA | -0.143
ATCACTAG | 0.0217
TCATCCAA | 0.139
TAGGCTCA | -0.0534
